# Published values pooled from the literature.
# Parts stem from different laboratories: compare values within a part only.

# Block 1
# Target: Prothrombin, mature alpha-thrombin (F2, Homo sapiens, UniProt P00734)
# Method: aptamer microarray, sandwich
# Molecule type: DNA with 2'F-ANA
# Medium: in vitro
# Tested at: 200 nM
# Notes: whole 15-mer aptamer, many near background
# Added: Cy3 exosite-II aptamer, 400 nM
# Reading: higher = stronger binding
# Oligonucleotide: GGTTGGTGTGGTTGG
Modification,mean fluorescence intensity [a.u.]
2'F-ANA at 1 3 4 7 8 10,78
2'F-ANA at 1 2 3 4 6 7 8 9 13,105
2'F-ANA at 1 2 4 7 8 11 12 15,245
2'F-ANA at 3 4 6 8 12 13,685
2'F-ANA at 1 3 4 5 6 7 10 14 15,66.4
2'F-ANA at 1 3 4 8 10 13 15,60.5
2'F-ANA at 1 3 4 6 10 11 12,109
2'F-ANA at 1 4 5 6 9 10 12 13 14 15,47.8
2'F-ANA at 2 3 4 8 10 12 14,199
2'F-ANA at 3 4 6 9 10 12,344
2'F-ANA at 3 8 10 14,524
2'F-ANA at 2 4 5 8 9 11 14,84.1
2'F-ANA at 1 3 7 9 11 12 14 15,101
2'F-ANA at 4 5 6 8 15,68.4
2'F-ANA at 4 6 8 11 13 15,169
2'F-ANA at 2 5 6 7 8 9 10 11 15,50.3
2'F-ANA at 1 4 5 9 13 14 15,57.2
2'F-ANA at 2 4 8 9 14 15,92.6
2'F-ANA at 1 3 6 8 9 13 15,225
2'F-ANA at 5 6 7 9 12 13 15,92.9
2'F-ANA at 1 3 5 6 10 12 14,47.9
2'F-ANA at 1 4 7 8 10 11 13 15,49.5
2'F-ANA at 1 3 7 8 12 13 14 15,146
2'F-ANA at 3 6 7 8 9 12 13,1110
2'F-ANA at 1 3 6 7 8 10 11 12 14 15,67.8

# Block 2
# Target: TAR DNA-binding protein 43, full length, His tag (TARDBP, Homo sapiens, UniProt Q13148, residues 1-414)
# Method: RNA Bind-n-Seq
# Molecule type: RNA
# Medium: in vitro
# Tested at: 20 nM
# Notes: 6-mer, flanks averaged, single round
# Added: 150 mM KCl
# Reference: input library
# Reading: higher = stronger binding
Oligonucleotide,6-mer enrichment (R)
GUUUUG,0.872
CGGAAC,0.848
GGAUGC,1.52
UGACGG,1.52
CAGUAU,0.677
GCGGAG,3.73
CGCCAA,0.716
CGUCUA,0.592
CCGAUU,0.588
UACCCU,0.621
GCCUAG,0.915
AAUGCG,1.01
UCGCUC,0.559
UUCCAG,0.669
AUGGGG,4.06
GCCCUA,0.677
CGUUAU,0.583

# Block 3
# Target: Histone acetyltransferase KAT6A, both winged helices, GST fusion (KAT6A, Homo sapiens, UniProt Q92794, residues 1-181)
# Method: protein binding microarray
# Molecule type: double-stranded DNA, one strand shown
# Medium: in vitro
# Tested at: not given
# Notes: 8-mer, flanks averaged, mean of 2 arrays, mostly near background
# Reference: not given
# Reading: higher = stronger binding
# Target sequence (chain): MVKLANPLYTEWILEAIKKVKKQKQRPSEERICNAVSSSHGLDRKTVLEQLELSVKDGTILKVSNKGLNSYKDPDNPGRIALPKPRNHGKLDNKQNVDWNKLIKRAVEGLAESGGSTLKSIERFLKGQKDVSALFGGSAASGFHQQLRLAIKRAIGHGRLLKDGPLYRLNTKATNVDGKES
Oligonucleotide,E-score
CATAAGGG,-0.108
ATGTCATG,0.0154
ATACGTAA,0.0243
CGCGGGTC,0.345
CAATTCCC,-0.146
GGCTTCGA,0.0448
ATGAACTC,-0.166
CGTTATGA,0.0701
AAACAACC,-0.164
AGACACAT,-0.187
AACACTGT,-0.0147
CGCCCACG,0.142
CCCGTGCC,0.203
GTGTTCAA,0.162
CTTATTAC,-0.0837
AGTACAGC,-0.218
AGACTGAT,-0.113

# Block 4
# Target: Interferon regulatory factor 7, full length, phosphomimetic (IRF7, Homo sapiens, UniProt Q92985, residues 1-503, S101K/S471D/S472D/S475D/S476D/S477D/S483D/S484D/S487D)
# Method: protein-binding microarray
# Molecule type: double-stranded DNA, one strand shown
# Medium: in vitro
# Tested at: 250 nM
# Notes: 60-bp whole probe
# Added: salmon DNA 0.4 mg/ml
# Reference: random background probes
# Reading: higher = stronger binding
# All sequences stand within: GCCTAGCAC … GTCTTGATTCGCTTGACGCTGCTG
# Target sequence (chain): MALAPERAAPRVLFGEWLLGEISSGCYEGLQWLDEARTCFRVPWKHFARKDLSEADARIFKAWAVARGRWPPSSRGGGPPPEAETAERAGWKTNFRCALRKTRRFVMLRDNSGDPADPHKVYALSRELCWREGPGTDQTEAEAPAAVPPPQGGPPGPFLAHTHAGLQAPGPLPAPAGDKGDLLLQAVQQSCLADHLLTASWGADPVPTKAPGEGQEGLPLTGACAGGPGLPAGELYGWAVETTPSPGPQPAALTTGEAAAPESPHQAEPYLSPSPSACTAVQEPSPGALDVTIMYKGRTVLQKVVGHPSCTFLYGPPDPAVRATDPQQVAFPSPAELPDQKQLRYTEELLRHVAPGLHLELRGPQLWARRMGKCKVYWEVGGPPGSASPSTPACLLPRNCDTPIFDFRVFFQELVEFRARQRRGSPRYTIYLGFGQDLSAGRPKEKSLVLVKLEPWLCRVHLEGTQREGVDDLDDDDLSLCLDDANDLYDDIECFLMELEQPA
Oligonucleotide,log fluorescence [z-score]
GACGGACGGGACACTGGGGACGTGCTA,-0.69
TTGGGTATCGACTTTCGGTTAGTGCTA,2.43
GACAGTATCCTTCTCCTGACGTGCTAG,0.295
GACGGTTTCGACACTGGGGATGTGCTA,3.55
TTCGGTATCCTTTTCCTTTAGTGCTAG,1.9
TGATCTCTGGTCTTTGTCAGGTGCTAG,0.165
TTATGTATCGACACTGGGTTAGTGCTA,-0.0714
TCATTTTTCCCTATTATACTGTGCTAG,2.61
TCAATTTCAGTTTTCTTACTGTGCTAG,1.52
GGGCCTAGCCATTATGAGTCTGTGCTA,-0.378
TGGGTTTTCAGCTGTTTTTCTGTGCTA,0.154
TCACATGTGCCTTTATAACTGTGCTAG,0.178
GAGGGTTTCCTTTCCCTGACGTGCTAG,3.47
GCTCATTTTTTTTGCAAGCTGTGCTAG,0.811
GACGGTATCGACTTTCGGGAAGTGCTA,1.3
GACGATATCAGTATTGAGACGTGCTAG,-0.0305
TCAGGTTTCGACTTTCGGTTAGTGCTA,11.1
TTTGATTTCGGGTTTCGATTAGTGCTA,7.82
TTAGGACTTGGTTTCGGTTAGTGCTAG,9.41
TTAGGTTTACTTTCCCTTTAGTGCTAG,2.32
TTCCCTCTCCCCTCTTGTGCTGTGCTA,1.06
TTATGTATCGGGACTGGGTTAGTGCTA,0.0455
GACGTTCTCCTTATCCTGACGTGCTAG,1.1

# Block 5
# Target: RNA binding protein fox-1 homolog 2, RRM domain, GST-SBP tag (RBFOX2, Homo sapiens, UniProt O43251-10, residues 100-194)
# Method: RNA Bind-n-Seq
# Molecule type: RNA
# Medium: in vitro
# Tested at: 365 nM
# Notes: natural RNA segment, single round, ends assumed
# Reference: no-protein control
# Reading: higher = stronger binding
# All sequences stand within: GGGAGUUCUACAGUCCGACGAUC … UGGAAUUCUCGGGUGCCAA
# Residues (chain): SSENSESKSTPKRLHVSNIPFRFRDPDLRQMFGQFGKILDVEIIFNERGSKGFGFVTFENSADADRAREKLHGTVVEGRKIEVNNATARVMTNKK
Oligonucleotide,RBNS enrichment (R)
CAUGUUUUAUGGUACUCAGCCAUCCAAAAGUGAAAGACCUAGCAUUUGAUUCUGUGCAGGACACAAAUCUCACAGGAACUAUAGCACUUUGGAAAAGCAUCAAAGUAGAA,0.612
UUGAGUUUUUGCAGUUCAGUAUCCCUCUGUCUAUUCACACUUCGUGUUAGUGGUAACUCAGUUUGUCUUUAAAUAGUUACAGAAGGGAUACGUCAUUUGUUAAUGCUUUU,0.495
UGGAACCUUGAGGCUAGUUAGUAUCACACUCAGGCCACACUCAGCACUUGCCCACUCUUGUUUACUGCCUUGUAUUCUAGUUAUUUGUGUAUUUGUCUCCCUCACUAGAU,0.948
AGAGCGUGUGCAUAGGUGGUCUCUGACCUGAACAUCACAGUGCGGAGAAAGCCCGGCUGGAAACACCCUCGCCCCCAGCCUACGGGUCCCCGAAAUGGGGUCCUCUCACC,0.165
CCCUCAGCUACUCCUUGUUUUAAAGUUCAGCUCUUUGAGUAACUUCUUCAAUUUCUUUCAGGACACUUGGGUUGAAUUCAGUAAGUUUCCUCUGAAGCACCCUGAAGGGU,0.885
CUCUAGUUCUUUGUUCAUAGCCCAGUAGACCUUGUUACUUCUGAGGUAAGUUAAGUAAGUUGAUUCGGUAUCCCCCCAUCUUGCUUCCCUAAUCUAUGGUCGGGAGACAG,0.333
GGGGGAUAACAGCACAUCCUAGAUCAUGUGUGAACUUUGGGGUUUUUAAUUGCCCUUGGUAUCCUGAUAUUCUCAUUUUCAAGGUGAGGUAAAGACAGGGUUUCCUUACU,0.622
AACCCAAAAUUCAAUCAACAAUUCUGUCUUAUUGAAGAGUUGCUAGGAUUCAGAGUAAAACUCAAAGGAUUCAGUUUGAGCCUAGAAUGAUGGUUAGACUUGUAGUCACU,0.252
GGGGAUUAGAUGCUCCUGCAUUUGUGAAAUGGUUAUAAGCAUAGAAAAAUAGGUGGUAAGCUUUCCUUCUUUCCUUAUUUUGUGUGAUGCCUUAAACUGAAAAGUUAAAA,0.515
ACAUGACUAUAACUCUAGACCCAGAGAAUCUGAUGUUCUUCUCCUCUGAGGGCAUCUGAAUGCAUAUAGUGUGUGUGCAUGAACACAGCACUGGACAGUACACUCUGGUG,4.61
UGCUGCCAGUUUCUUUUUUGGUUCCUUUCUGCCCAGGACUGCAUGAGUUUCCCAGCCCCAAGUGGGGGCUGCUAGGCCCUUCCUCCCUGCCUCUGGGAACCGGGCUGGUG,1
GGAAUGCAUGCAGCCUGCUGUUGGUACCCUGCUCACCUGUGUCUUUCUUACCCAGGAGGCUUCUCUCAGUGGUUGGAAGUAAAACCAUCUCAAUGGGCCUAUACAGGAAA,7.87

# A few entries again (block 4):
Oligonucleotide,log fluorescence [z-score]
GAGGGTTTCCTTTCCCTGACGTGCTAG,3.47
TGGGTTTTCAGCTGTTTTTCTGTGCTA,0.154
TTATGTATCGGGACTGGGTTAGTGCTA,0.0455
TCACATGTGCCTTTATAACTGTGCTAG,0.178
GACGGTATCGACTTTCGGGAAGTGCTA,1.3
TTCCCTCTCCCCTCTTGTGCTGTGCTA,1.06
TTATGTATCGACACTGGGTTAGTGCTA,-0.0714
TCAGGTTTCGACTTTCGGTTAGTGCTA,11.1
TTAGGTTTACTTTCCCTTTAGTGCTAG,2.32
